# Measurements of several laboratories.
# Each numbered part is a random draw from the data of one study; scales do not carry over between parts. Several values in a cell are separate wells, animals, samples, runs or records.
# Chain of UniProt P51812 (whole entry, looked up): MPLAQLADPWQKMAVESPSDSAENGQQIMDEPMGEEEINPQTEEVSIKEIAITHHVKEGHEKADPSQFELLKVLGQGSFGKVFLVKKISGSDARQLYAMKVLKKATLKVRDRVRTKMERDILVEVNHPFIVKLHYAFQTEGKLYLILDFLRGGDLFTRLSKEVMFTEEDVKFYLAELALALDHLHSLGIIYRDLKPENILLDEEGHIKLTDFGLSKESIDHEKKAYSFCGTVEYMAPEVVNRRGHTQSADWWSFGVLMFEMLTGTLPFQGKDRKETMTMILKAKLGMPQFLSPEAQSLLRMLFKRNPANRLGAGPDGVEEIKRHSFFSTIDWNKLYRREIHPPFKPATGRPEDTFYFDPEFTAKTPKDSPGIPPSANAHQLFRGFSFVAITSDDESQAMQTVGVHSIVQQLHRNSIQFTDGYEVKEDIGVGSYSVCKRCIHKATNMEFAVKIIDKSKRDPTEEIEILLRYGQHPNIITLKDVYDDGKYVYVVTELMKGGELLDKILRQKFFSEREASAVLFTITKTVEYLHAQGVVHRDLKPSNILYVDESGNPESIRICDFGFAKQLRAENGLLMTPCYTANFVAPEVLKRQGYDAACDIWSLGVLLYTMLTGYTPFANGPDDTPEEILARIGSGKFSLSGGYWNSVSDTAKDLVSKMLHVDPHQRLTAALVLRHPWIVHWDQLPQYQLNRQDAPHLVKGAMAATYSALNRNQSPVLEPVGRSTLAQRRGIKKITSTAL
# Chain of UniProt Q6ZWH5 (whole entry, looked up): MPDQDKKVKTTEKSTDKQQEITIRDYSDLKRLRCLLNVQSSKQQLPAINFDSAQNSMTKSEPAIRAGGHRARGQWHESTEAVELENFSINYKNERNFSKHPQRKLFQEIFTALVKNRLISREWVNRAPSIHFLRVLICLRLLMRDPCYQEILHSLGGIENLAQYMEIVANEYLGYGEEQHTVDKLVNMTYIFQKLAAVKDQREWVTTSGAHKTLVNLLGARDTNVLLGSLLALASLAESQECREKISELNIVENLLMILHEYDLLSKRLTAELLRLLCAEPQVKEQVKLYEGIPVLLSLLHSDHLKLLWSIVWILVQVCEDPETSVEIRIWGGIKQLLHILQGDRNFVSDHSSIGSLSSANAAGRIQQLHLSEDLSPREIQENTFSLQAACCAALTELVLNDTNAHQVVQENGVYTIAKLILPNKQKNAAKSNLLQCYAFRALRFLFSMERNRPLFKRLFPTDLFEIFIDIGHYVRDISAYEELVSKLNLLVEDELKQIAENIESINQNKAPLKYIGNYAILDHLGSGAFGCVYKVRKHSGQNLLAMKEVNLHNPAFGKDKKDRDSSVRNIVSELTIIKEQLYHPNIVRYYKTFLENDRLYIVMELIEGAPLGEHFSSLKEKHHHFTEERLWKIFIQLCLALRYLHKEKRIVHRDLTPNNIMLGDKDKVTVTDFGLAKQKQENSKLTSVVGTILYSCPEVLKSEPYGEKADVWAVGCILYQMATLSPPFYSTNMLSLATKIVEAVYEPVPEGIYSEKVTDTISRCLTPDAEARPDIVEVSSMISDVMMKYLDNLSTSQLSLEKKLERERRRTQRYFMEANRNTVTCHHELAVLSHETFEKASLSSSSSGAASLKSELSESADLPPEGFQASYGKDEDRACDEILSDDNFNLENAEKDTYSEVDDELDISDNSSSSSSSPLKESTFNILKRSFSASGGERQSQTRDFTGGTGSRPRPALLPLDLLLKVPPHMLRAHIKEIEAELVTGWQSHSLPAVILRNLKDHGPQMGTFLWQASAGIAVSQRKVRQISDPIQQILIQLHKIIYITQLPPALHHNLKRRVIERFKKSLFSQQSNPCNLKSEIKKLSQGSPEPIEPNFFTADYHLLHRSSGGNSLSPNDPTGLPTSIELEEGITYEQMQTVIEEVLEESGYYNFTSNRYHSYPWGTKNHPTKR
# Chain of UniProt P29597 (whole entry, looked up): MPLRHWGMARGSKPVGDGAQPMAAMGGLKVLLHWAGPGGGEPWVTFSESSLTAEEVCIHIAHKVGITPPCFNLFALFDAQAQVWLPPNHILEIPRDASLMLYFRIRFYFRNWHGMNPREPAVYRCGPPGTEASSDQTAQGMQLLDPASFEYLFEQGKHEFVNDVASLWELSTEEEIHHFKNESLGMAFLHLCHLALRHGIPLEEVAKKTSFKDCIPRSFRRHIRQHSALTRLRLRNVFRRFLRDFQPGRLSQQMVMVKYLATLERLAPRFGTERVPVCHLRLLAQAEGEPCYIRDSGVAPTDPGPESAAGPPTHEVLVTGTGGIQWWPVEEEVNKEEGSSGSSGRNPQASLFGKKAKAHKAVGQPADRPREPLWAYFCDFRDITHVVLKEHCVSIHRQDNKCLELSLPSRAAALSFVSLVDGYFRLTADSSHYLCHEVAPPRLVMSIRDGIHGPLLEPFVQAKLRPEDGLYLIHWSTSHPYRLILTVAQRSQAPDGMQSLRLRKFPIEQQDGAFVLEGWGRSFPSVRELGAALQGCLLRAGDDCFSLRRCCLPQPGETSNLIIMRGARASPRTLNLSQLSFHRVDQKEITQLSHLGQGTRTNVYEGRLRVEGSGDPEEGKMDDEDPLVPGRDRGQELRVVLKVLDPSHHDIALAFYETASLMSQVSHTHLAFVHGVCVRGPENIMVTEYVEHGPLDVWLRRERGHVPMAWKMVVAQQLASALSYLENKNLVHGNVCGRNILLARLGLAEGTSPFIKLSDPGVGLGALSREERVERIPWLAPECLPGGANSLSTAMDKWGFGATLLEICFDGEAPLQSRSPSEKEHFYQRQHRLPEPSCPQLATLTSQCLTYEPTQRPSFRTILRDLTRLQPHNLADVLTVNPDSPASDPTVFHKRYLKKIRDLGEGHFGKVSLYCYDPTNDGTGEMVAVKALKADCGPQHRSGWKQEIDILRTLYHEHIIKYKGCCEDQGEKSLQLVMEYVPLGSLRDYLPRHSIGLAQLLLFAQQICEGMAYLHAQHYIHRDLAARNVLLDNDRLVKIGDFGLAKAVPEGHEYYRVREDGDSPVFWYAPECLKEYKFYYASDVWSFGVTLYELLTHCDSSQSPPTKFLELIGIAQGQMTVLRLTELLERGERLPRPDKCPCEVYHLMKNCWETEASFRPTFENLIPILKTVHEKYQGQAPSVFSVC
# Chain of UniProt P52333 (whole entry, looked up): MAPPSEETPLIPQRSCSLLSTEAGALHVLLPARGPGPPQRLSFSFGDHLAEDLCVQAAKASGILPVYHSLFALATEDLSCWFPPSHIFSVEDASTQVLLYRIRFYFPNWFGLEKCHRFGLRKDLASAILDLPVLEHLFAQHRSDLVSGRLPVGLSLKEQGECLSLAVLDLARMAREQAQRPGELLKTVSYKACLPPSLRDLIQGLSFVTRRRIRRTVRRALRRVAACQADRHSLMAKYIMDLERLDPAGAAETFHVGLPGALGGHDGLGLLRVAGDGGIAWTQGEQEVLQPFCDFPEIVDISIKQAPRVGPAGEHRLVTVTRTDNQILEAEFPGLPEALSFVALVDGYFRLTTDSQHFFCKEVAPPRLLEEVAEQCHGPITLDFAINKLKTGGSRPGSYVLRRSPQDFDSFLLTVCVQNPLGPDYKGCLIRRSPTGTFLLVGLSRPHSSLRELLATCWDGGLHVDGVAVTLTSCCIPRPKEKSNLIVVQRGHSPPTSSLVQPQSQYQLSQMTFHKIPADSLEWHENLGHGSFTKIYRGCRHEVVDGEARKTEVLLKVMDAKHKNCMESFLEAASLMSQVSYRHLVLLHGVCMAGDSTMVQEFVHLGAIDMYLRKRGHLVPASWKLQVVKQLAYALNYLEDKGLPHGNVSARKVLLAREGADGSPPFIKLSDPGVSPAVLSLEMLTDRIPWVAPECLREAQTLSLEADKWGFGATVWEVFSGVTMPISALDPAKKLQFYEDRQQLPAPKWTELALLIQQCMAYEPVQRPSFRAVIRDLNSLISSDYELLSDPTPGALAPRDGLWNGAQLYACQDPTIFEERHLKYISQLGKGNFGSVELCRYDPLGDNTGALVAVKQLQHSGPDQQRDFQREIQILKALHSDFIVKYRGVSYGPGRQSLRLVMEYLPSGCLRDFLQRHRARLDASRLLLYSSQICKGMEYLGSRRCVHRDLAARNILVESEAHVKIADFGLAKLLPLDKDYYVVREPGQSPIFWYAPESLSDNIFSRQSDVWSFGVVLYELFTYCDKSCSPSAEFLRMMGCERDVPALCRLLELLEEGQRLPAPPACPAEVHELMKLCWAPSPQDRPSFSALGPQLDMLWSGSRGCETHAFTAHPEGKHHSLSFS

# Series 1 — host: mouse; matrix: microsomes or S9; concentration: 2 µM; time: 0.5 h
Compound,remaining compound
CCn1[nH]/c(=N\S(=O)(=O)c2ccc(C)cc2)c2cc3cccc(C)c3nc21,1.35%
Cc1cc(N)cc(Br)c1OCc1ccccc1,5.55%
COc1ccc2ccccc2c1CNCc1ccc(F)cc1,0.337%
COCCNC(=O)C(=O)N1CCC(OC(=O)c2ccc(Oc3ccccc3)cc2)C(N2CCN(c3ccc(F)cc3)CC2)C1 (stereo not drawn),4.99%
O=C(CC1NCCNC1=O)OCCc1ccccc1 (stereo not drawn),33.3%

# Series 2 — notes: trial
# Compound: CC(C)n1cnc(-c2ccc(F)cc2)c1-c1ncc(C(=O)Nc2ccc(N3CCN(C)CC3)cc2)[nH]1
# Host: patients with idiopathic pulmonary fibrosis
measured,dose,patients discontinuing for adverse event
hepatic dysfunction,60 mg once daily,5.6%
drug-induced liver injury,30 mg twice daily,11.1%
elevated ALT or AST,30 mg twice daily,5.6%
acute IPF exacerbation,60 mg once daily,5.6%

# Series 3 — effect on: enzyme activity; mode: inhibitor; concentration: 0.5 µM; baseline: control
# Target: Tyrosine-protein kinase Yes (YES1, Homo sapiens, UniProt P07947)
# Chain of UniProt P07947 (whole entry, looked up): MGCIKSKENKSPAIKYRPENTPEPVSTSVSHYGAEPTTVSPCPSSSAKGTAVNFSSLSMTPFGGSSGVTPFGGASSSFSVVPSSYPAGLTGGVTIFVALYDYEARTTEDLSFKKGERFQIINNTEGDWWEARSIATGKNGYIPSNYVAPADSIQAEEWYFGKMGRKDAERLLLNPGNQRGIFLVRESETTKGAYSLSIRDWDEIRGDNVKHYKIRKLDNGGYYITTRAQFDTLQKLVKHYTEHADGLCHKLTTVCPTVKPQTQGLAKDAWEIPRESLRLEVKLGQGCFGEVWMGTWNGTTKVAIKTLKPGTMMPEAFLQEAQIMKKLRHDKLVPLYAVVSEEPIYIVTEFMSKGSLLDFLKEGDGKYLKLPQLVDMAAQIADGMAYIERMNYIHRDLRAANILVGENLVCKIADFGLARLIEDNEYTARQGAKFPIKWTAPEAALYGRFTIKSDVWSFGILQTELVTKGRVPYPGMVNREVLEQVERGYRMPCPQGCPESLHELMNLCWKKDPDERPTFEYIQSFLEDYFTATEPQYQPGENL
SMILES,remaining activity [%]
COc1cc2ncnc(Nc3ccc(F)c(Cl)c3)c2cc1OCCCN1CCOCC1,74.4
Oc1ccc(-c2nc(-c3ccncc3)c(-c3ccc(F)cc3)[nH]2)cc1,84.7
N#CC(C#N)=C(N)/C(C#N)=C/c1ccc(O)cc1,100
COc1ccc(OC)c2c(=S)c3ccccc3[nH]c12,89.2
Nc1[nH]nc2nc3ccccc3nc12,97.1
Cn1sc(=O)n(Cc2ccccc2)c1=O,96.3
OCC(O)CCON=C1C(c2c(O)[nH]c3ccccc23)=Nc2ccccc21 (stereo not drawn),13.4
O=S(=O)(c1cccc2cnccc12)N1CCCNCC1,96.5
COc1cc2nccc(Oc3ccc(NC(=S)NC(=O)c4ccccc4C)cc3)c2cc1OC,23.9
Cc1ccc(NC(=O)c2ccc(CN3CCN(C)CC3)cc2)cc1Nc1nc(-c2cccnc2)cs1,50.7
O=C(Nc1cccc(Nc2cc(Nc3cccc(C(F)(F)F)c3)ncn2)c1)C1CC1,99.6
Nc1ccc2ncnc(NCCc3ccc(Oc4ccccc4)cc3)c2c1,112
CCOC(=O)c1c(C)[nH]c(/C=C2\C(=O)Nc3ccccc32)c1C,68.3
CN(C)c1ccc(C=C2C(=O)Nc3ccccc32)cc1,89.3
Nc1ncnc2n[nH]c(Nc3ccc(F)cc3)c12,92.9

# Series 4 — effect on: cell-free assay; technique: competition with immobilised ligand; concentration: 1 µM
# Structure (SMILES): CCCCN(CCCC)C(=O)CN1C[C@@H](c2cc(OC)c3c(c2)OCO3)[C@H](C(=O)O)[C@H]1CC(C)(C)CCC
target,remaining binding [%]
"PHKG1 (Homo sapiens, UniProt Q16816)",97.5
"Non-receptor tyrosine-protein kinase TYK2, JH2 (TYK2, Homo sapiens, UniProt P29597)",95.8
"Tyrosine-protein kinase JAK3, JH1 (JAK3, Homo sapiens, UniProt P52333)",93.6
"Ribosomal protein S6 kinase alpha-3, C-terminal kinase domain (RPS6KA3, Homo sapiens, UniProt P51812)",85.4
"NEK10 (Homo sapiens, UniProt Q6ZWH5)",100

# Series 5 — host: human; matrix: plasma; route: oral
# Structure (SMILES): COc1ccc(-c2c(Nc3ccccn3)[nH]c3c(C4=CCCCC4)c(-c4ccccc4)nn3c2=O)cc1
technique,dose,time,AUC(all)
LC-MS/MS,50 mg once daily,,34.9 µg·h/mL and 33 µg·h/mL
LC-MS/MS non-compartmental,50 mg once daily,cycle 1,32.3 µg·h/mL
LC-MS/MS non-compartmental,200 mg twice daily,cycle 1,234 µg·h/mL
,200 mg twice daily,,255 µg·h/mL and 243 µg·h/mL

# For quick reference, copied from above (series 3):
SMILES,remaining activity [%]
COc1ccc(OC)c2c(=S)c3ccccc3[nH]c12,89.2
Cn1sc(=O)n(Cc2ccccc2)c1=O,96.3
CCOC(=O)c1c(C)[nH]c(/C=C2\C(=O)Nc3ccccc32)c1C,68.3
OCC(O)CCON=C1C(c2c(O)[nH]c3ccccc23)=Nc2ccccc21 (stereo not drawn),13.4
